# Results pooled from the literature.
# A part holds a random share of what one study measured. “And” joins repeats or separate records; there may be more than shown.
# Chain of UniProt P54756 (whole entry, looked up): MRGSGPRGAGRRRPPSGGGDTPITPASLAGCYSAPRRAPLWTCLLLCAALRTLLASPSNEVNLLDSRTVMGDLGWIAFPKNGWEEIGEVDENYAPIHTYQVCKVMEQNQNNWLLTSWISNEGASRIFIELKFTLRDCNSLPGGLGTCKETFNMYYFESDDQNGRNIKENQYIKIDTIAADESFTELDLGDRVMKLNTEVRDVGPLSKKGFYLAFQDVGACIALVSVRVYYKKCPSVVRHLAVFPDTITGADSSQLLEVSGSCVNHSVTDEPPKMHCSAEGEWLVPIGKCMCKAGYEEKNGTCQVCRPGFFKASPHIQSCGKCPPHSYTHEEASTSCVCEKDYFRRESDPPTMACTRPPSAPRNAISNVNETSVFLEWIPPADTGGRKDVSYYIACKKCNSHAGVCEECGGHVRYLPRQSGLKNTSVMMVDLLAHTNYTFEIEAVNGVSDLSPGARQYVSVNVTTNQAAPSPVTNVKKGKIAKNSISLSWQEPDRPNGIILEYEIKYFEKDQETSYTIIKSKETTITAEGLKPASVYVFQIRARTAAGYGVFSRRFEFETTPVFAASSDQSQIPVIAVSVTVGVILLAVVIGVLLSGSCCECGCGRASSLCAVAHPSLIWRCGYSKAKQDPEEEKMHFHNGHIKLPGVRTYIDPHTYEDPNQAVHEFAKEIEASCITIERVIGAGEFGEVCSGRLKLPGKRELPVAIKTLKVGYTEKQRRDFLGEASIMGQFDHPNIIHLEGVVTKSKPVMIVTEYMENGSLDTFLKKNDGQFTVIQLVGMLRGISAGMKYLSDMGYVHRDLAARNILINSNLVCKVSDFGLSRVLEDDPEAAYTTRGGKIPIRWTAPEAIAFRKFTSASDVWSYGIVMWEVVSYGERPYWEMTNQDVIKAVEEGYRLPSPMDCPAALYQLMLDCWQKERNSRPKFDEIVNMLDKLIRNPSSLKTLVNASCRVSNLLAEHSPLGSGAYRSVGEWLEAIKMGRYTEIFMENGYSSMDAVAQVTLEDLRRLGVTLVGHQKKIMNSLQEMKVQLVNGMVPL
# Chain of UniProt P00519 (whole entry, unmodified, looked up): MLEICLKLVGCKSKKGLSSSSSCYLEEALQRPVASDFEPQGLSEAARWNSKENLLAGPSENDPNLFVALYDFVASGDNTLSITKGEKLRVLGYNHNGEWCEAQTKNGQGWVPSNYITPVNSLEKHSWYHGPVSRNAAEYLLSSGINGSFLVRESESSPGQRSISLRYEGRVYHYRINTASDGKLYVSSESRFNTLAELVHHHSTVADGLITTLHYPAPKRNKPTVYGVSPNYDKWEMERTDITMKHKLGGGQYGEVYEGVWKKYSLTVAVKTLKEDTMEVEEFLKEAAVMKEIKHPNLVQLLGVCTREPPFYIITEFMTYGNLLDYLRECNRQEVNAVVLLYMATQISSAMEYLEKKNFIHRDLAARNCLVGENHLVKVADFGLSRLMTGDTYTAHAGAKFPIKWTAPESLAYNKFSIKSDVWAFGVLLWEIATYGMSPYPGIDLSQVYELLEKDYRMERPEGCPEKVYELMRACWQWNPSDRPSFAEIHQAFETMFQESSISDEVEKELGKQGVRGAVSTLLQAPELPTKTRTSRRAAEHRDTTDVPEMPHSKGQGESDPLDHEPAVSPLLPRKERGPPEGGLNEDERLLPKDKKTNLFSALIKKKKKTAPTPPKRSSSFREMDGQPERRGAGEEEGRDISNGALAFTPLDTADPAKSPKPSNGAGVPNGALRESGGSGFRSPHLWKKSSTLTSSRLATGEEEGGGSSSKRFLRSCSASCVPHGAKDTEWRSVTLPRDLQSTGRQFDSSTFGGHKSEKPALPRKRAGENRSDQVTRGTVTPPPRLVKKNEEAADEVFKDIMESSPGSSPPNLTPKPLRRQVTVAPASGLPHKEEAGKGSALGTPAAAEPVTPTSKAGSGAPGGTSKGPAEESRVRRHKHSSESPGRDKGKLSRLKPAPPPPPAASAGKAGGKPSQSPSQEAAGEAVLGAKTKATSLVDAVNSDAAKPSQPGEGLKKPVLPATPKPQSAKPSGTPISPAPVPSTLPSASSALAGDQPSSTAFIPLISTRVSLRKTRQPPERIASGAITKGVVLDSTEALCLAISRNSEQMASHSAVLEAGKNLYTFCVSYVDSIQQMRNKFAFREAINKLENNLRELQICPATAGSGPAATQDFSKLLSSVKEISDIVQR
# Chain of UniProt P68400 (whole entry, looked up): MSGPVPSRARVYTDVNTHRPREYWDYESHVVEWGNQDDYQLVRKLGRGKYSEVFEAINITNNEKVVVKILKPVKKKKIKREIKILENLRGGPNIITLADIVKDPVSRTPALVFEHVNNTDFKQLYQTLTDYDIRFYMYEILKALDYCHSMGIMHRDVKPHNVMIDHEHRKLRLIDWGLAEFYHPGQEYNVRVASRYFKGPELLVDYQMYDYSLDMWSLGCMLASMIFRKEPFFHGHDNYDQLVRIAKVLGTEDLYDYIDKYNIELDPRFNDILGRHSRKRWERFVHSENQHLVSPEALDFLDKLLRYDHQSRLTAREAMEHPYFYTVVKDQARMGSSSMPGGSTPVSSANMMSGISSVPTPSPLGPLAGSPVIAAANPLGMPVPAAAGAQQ

# Sample 1
# Compound: COc1ccc(-c2cnc3c(-c4ccsc4)cnn3c2)cc1
# Read-out: enzyme activity
# Mode: inhibitor
# Concentration: 0.5 µM
# Baseline: control
target,remaining activity [%]
"Protein kinase C delta type (PRKCD, Homo sapiens, UniProt Q05655)",98.9
"Casein kinase I isoform alpha (CSNK1A1, Homo sapiens, UniProt P48729)",101
"Protein kinase C iota type (PRKCI, Homo sapiens, UniProt P41743)",96.2
"Mitogen-activated protein kinase kinase kinase kinase 2 (MAP4K2, Homo sapiens, UniProt Q12851)",74.8
"Serine/threonine-protein kinase PLK2 (PLK2, Homo sapiens, UniProt Q9NYY3)",100
"Cyclin-dependent kinase 9, with cyclin T1 (CDK9, Homo sapiens, UniProt P50750)",73.8
"RAC-gamma serine/threonine-protein kinase (AKT3, Homo sapiens, UniProt Q9Y243)",95.4
"Mitogen-activated protein kinase 12 (MAPK12, Homo sapiens, UniProt P53778)",94.8
"Tyrosine-protein kinase Lyn (LYN, Homo sapiens, UniProt P07948)",81.8
"Mast/stem cell growth factor receptor Kit (KIT, Homo sapiens, UniProt P10721)",36.2
"cGMP-dependent protein kinase 1 (PRKG1, Homo sapiens, UniProt Q13976)",86.5
"Tyrosine-protein kinase BTK (BTK, Homo sapiens, UniProt Q06187)",97.1
"Casein kinase II subunit alpha (CSNK2A1, Homo sapiens, UniProt P68400)",101
"Ephrin type-A receptor 5 (EPHA5, Homo sapiens, UniProt P54756)",89.1
"Serine/threonine-protein kinase Chk1 (CHEK1, Homo sapiens, UniProt O14757)",90.8
"Serine/threonine-protein kinase 38 (STK38, Homo sapiens, UniProt Q15208)",102
"Serine/threonine-protein kinase Nek4 (NEK4, Homo sapiens, UniProt P51957)",80
"MAP kinase-interacting serine/threonine-protein kinase 2 (MKNK2, Homo sapiens, UniProt Q9HBH9)",37.5
"Interleukin-1 receptor-associated kinase 4 (IRAK4, Homo sapiens, UniProt Q9NWZ3)",82.1
"Mitogen-activated protein kinase 13 (MAPK13, Homo sapiens, UniProt O15264)",93.5
"Serine/threonine-protein kinase WNK2 (WNK2, Homo sapiens, UniProt Q9Y3S1)",103
"Leucine-rich repeat serine/threonine-protein kinase 2 (LRRK2, Homo sapiens, UniProt Q5S007)",68.1
"Dual specificity mitogen-activated protein kinase kinase 6 (MAP2K6, Homo sapiens, UniProt P52564)",95.9
"Mitogen-activated protein kinase kinase kinase 10 (MAP3K10, Homo sapiens, UniProt Q02779)",94.2

# Sample 2
# SMILES: COc1ccc2[nH]c3c4[nH]c5ccc(OC)cc5c4c4c(c3c2c1)C(=O)NC4=O
# Concentration: 1 µM
target,test,setting,how to read,remaining binding [%]
"STE20/SPS1-related proline-alanine-rich protein kinase (STK39, Homo sapiens, UniProt Q9UEW8)",competitive binding panel,,baseline: vehicle,100
"Protein kinase C theta type (PRKCQ, Homo sapiens, UniProt Q04759)",competitive binding panel,,baseline: vehicle,44
"Ephrin type-A receptor 5 (EPHA5, Homo sapiens, UniProt P54756)",competitive binding panel,,baseline: vehicle,85
"Activin receptor type-2B (ACVR2B, Homo sapiens, UniProt Q13705)",competitive binding panel,,baseline: vehicle,44
"Tyrosine-protein kinase ABL1 (ABL1, Homo sapiens, UniProt P00519)","competitive binding, scanMAX","nonphosphorylated, 1000 nM",,58
"Dual specificity mitogen-activated protein kinase kinase 5 (MAP2K5, Homo sapiens, UniProt Q13163)","competitive binding panel, refers to: MEK5",,baseline: vehicle,0.7
"Serine/threonine-protein kinase Nek11 (NEK11, Homo sapiens, UniProt Q8NG66)",competitive binding panel,,baseline: vehicle,100
"Serine/threonine-protein kinase pim-2 (PIM2, Homo sapiens, UniProt Q9P1W9)",competitive binding panel,,baseline: vehicle,0.5
"Cyclin-dependent kinase 15 (CDK15, Homo sapiens, UniProt Q96Q40)",competitive binding,PFTAIRE2,,91

# Sample 3
# SMILES: CC(=O)c1c(NS(C)(=O)=O)c2cc(-c3ccc(Cl)cc3)c(-c3ccc(Cl)cc3Cl)nc2n(C)c1=O
# Read-out: cell-free assay
# Technique: competition with immobilised ligand
# Concentration: 1 µM
target,remaining binding [%]
"Inhibitor of nuclear factor kappa-B kinase subunit alpha (CHUK, Homo sapiens, UniProt O15111)",100
"Serine/threonine-protein kinase 32C (STK32C, Homo sapiens, UniProt Q86UX6)",100
"Ribosomal protein S6 kinase alpha-6, C-terminal kinase domain (RPS6KA6, Homo sapiens, UniProt Q9UK32)",90
"Serine/threonine-protein kinase WNK3 (WNK3, Homo sapiens, UniProt Q9BYP7)",80
"Glycogen synthase kinase-3 beta (GSK3B, Homo sapiens, UniProt P49841)",97
"Serine/threonine-protein kinase 10 (STK10, Homo sapiens, UniProt O94804)",100
"Serine/threonine-protein kinase TAO3 (TAOK3, Homo sapiens, UniProt Q9H2K8)",72
"Myotonin-protein kinase (DMPK, Homo sapiens, UniProt Q09013)",89
"Casein kinase II subunit alpha' (CSNK2A2, Homo sapiens, UniProt P19784)",100
"LIM domain kinase 2 (LIMK2, Homo sapiens, UniProt P53671)",91
"Aurora kinase C (AURKC, Homo sapiens, UniProt Q9UQB9)",100
"Phosphatidylinositol 4,5-bisphosphate 3-kinase catalytic subunit alpha isoform (PIK3CA, Homo sapiens, UniProt P42336, E542K)",76
"Casein kinase I isoform delta (CSNK1D, Homo sapiens, UniProt P48730)",100
"Mitogen-activated protein kinase kinase kinase 19 (MAP3K19, Homo sapiens, UniProt Q56UN5)",85
"Casein kinase I isoform alpha-like (CSNK1A1L, Homo sapiens, UniProt Q8N752)",100
"Serine/threonine-protein kinase 36 (STK36, Homo sapiens, UniProt Q9NRP7)",100
"Dual specificity protein kinase TTK (TTK, Homo sapiens, UniProt P33981)",100
"Phosphatidylinositol 4,5-bisphosphate 3-kinase catalytic subunit alpha isoform (PIK3CA, Homo sapiens, UniProt P42336, Q546K)",86
"Epidermal growth factor receptor (EGFR, Homo sapiens, UniProt P00533, T790M)",64
"Serine/threonine-protein kinase D3 (PRKD3, Homo sapiens, UniProt O94806)",100
"Wee1-like protein kinase (WEE1, Homo sapiens, UniProt P30291)",95
"Ribosomal protein S6 kinase alpha-2, N-terminal kinase domain (RPS6KA2, Homo sapiens, UniProt Q15349)",100
"Tyrosine-protein kinase ABL1, non-phosphorylated (ABL1, Homo sapiens, UniProt P00519, F317L)",75
"Dual specificity mitogen-activated protein kinase kinase 4 (MAP2K4, Homo sapiens, UniProt P45985)",89
"Serine/threonine-protein kinase Nek3 (NEK3, Homo sapiens, UniProt P51956)",67

# Sample 4
# Target: DNA polymerase theta, ATPase domain (POLQ, Homo sapiens, UniProt O75417)
# Chain of UniProt O75417 (whole entry, unmodified, looked up): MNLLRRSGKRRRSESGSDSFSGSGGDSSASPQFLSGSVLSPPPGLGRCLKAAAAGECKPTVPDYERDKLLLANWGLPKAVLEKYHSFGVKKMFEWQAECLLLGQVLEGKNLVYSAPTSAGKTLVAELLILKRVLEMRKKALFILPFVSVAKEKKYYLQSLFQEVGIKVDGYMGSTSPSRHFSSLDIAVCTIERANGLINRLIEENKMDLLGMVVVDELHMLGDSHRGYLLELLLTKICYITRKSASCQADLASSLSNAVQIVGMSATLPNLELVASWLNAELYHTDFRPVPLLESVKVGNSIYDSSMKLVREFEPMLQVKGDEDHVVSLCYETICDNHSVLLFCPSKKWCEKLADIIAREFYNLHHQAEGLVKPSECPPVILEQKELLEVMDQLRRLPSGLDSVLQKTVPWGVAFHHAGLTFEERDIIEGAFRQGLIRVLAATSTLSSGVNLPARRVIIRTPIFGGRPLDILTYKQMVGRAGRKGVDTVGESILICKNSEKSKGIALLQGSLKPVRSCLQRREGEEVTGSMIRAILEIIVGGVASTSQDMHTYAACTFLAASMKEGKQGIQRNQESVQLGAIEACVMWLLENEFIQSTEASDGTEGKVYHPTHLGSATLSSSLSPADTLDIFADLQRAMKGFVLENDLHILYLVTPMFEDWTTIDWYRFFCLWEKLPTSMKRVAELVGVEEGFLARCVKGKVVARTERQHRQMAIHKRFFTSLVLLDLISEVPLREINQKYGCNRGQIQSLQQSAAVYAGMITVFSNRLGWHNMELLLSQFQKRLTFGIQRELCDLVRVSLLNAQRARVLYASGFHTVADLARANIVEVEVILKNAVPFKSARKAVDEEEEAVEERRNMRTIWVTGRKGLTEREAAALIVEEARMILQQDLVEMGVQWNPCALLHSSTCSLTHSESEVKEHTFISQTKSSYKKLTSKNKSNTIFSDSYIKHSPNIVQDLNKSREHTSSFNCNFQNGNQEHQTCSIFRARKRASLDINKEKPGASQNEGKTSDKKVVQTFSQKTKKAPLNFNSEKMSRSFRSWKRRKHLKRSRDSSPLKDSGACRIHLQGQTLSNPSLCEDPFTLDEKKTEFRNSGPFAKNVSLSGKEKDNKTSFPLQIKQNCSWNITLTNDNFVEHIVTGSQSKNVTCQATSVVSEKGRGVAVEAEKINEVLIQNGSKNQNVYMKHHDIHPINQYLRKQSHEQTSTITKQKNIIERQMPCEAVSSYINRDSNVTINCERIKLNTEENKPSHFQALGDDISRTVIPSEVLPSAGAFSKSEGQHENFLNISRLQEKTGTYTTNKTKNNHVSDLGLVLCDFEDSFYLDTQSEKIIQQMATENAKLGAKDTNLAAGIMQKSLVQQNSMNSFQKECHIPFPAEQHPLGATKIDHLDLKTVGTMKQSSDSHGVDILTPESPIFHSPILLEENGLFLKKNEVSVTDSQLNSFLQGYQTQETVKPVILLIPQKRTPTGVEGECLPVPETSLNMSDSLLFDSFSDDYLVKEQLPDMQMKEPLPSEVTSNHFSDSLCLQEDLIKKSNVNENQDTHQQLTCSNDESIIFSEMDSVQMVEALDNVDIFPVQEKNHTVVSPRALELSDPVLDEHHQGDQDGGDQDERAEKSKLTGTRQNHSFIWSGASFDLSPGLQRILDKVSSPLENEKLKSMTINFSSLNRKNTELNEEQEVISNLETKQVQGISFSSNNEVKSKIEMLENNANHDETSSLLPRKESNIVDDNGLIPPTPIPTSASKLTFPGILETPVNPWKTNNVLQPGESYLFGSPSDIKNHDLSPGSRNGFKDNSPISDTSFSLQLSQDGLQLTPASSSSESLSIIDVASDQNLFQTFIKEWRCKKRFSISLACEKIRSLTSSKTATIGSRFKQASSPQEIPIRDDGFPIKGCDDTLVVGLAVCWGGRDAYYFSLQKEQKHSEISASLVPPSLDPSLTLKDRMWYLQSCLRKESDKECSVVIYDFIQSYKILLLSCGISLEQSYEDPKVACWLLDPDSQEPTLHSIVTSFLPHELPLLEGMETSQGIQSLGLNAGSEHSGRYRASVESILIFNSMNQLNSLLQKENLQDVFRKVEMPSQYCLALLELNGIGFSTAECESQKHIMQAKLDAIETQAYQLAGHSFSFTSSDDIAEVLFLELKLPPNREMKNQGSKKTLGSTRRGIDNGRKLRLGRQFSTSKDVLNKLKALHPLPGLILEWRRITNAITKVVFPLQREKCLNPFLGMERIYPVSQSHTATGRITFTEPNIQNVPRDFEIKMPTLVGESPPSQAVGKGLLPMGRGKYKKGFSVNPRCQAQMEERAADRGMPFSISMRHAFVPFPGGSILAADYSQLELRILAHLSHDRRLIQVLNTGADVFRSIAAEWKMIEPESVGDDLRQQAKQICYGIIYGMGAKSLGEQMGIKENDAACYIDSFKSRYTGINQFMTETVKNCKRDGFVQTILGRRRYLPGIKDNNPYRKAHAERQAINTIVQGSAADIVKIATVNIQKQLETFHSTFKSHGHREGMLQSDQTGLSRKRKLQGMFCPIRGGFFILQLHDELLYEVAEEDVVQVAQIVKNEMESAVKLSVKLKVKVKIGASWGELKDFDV
# Read-out: enzyme activity
# Mode: inhibitor
# Concentration: 77 µM
# Baseline: untreated
SMILES,remaining activity
NC(=O)C1CCCc2c1[nH]c1ccc(Cl)cc21 (centres unmarked),81%
Nc1nc2c(nc(Br)n2[C@@H]2O[C@@H]3COP(=O)(O)O[C@H]3[C@H]2O)c(=O)[nH]1,101%
CC1(C)S[C@@H]2[C@H](NC(=O)[C@H](NC(=O)N3CCN(S(C)(=O)=O)C3=O)c3ccccc3)C(=O)N2[C@H]1C(=O)O,95.6%
COc1cccc(C(=O)NCCN2CCN(c3ccc(Cl)cc3)CC2)c1,104%
COc1cc2c(Nc3ccc(Br)cc3F)ncnc2cc1OCC1CCN(C)CC1,90.8% and 67.9% and 81%
CCCCS(=N)(=O)CCC(N)C(=O)O (racemic),92.6%
CCOC(=O)c1c(C)n(C)c2ccc(O)cc12,104%

# A few entries again (sample 1):
target,remaining activity [%]
"Serine/threonine-protein kinase 38 (STK38, Homo sapiens, UniProt Q15208)",102
"Serine/threonine-protein kinase Chk1 (CHEK1, Homo sapiens, UniProt O14757)",90.8
"Leucine-rich repeat serine/threonine-protein kinase 2 (LRRK2, Homo sapiens, UniProt Q5S007)",68.1
"Interleukin-1 receptor-associated kinase 4 (IRAK4, Homo sapiens, UniProt Q9NWZ3)",82.1
"Casein kinase I isoform alpha (CSNK1A1, Homo sapiens, UniProt P48729)",101
"RAC-gamma serine/threonine-protein kinase (AKT3, Homo sapiens, UniProt Q9Y243)",95.4
"Cyclin-dependent kinase 9, with cyclin T1 (CDK9, Homo sapiens, UniProt P50750)",73.8
"Dual specificity mitogen-activated protein kinase kinase 6 (MAP2K6, Homo sapiens, UniProt P52564)",95.9
"Casein kinase II subunit alpha (CSNK2A1, Homo sapiens, UniProt P68400)",101
